# Experimental data from different studies.
# Lines come from different studies, so protocols differ. “And” joins repeats or separate records; there may be more than shown. ± gives the spread as reported.
# CXCR4: C-X-C chemokine receptor type 4 (CXCR4, Homo sapiens, UniProt P61073)
# UniProt P61073, sequence (whole entry, looked up): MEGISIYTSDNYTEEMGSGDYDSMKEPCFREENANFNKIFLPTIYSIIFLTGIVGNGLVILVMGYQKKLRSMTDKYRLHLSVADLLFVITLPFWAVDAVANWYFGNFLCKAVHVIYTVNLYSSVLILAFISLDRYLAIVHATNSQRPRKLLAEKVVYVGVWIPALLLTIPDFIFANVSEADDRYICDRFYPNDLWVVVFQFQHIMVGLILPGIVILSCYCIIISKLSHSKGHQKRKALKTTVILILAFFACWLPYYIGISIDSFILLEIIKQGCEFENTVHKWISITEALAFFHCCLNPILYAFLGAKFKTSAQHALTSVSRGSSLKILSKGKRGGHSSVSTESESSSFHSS
# UniProt Q86VL8, sequence (whole entry, looked up): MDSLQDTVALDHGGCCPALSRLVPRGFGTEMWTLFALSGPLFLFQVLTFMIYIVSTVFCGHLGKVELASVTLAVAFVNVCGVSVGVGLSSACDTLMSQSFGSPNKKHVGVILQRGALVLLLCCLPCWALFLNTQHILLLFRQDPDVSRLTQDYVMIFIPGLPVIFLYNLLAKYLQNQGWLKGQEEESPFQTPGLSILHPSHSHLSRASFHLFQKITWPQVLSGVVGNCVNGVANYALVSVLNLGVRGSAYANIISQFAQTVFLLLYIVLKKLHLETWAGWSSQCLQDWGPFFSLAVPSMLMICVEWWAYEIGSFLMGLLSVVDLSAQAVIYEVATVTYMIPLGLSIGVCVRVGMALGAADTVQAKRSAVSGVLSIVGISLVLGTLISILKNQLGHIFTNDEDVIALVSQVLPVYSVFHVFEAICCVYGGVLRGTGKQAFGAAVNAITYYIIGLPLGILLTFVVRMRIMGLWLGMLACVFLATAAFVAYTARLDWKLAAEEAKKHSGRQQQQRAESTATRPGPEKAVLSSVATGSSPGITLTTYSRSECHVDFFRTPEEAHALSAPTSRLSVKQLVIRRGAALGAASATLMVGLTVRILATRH
# UniProt P10636, sequence (whole entry, looked up): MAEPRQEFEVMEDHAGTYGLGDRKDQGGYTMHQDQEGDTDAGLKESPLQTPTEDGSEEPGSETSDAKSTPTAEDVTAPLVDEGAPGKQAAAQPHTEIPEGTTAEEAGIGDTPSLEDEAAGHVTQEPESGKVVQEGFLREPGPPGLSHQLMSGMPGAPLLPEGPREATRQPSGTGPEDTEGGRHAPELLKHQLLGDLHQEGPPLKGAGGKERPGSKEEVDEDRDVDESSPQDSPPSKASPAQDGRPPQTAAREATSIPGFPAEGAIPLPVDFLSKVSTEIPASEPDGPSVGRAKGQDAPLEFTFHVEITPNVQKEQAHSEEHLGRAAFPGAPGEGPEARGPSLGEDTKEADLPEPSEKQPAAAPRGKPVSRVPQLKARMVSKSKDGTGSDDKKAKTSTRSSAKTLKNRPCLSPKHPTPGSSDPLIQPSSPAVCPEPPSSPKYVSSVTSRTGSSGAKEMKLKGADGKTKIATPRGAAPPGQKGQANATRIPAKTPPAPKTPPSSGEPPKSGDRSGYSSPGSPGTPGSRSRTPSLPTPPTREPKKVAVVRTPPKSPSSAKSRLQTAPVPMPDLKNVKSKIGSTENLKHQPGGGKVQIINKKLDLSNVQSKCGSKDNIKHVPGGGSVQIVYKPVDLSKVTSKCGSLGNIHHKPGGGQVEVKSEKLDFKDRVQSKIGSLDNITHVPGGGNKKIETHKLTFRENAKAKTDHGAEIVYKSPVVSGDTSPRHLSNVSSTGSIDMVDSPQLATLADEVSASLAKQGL
# UniProt O00311, sequence (whole entry, looked up): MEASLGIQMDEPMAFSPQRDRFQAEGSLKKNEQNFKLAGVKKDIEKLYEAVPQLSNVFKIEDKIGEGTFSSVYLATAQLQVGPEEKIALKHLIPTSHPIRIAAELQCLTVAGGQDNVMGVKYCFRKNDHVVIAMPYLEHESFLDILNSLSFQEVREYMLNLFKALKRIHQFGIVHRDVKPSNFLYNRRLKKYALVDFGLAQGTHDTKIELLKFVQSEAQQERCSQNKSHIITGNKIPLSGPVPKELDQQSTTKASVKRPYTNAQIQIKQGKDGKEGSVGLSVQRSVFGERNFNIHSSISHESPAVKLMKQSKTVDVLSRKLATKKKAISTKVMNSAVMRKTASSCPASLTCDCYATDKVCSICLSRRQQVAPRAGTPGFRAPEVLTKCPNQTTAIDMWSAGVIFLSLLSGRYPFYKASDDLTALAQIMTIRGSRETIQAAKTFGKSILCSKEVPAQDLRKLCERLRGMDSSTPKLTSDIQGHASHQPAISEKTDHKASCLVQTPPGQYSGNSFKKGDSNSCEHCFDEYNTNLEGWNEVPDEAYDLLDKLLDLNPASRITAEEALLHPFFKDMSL
# UniProt P09874, sequence (whole entry, looked up): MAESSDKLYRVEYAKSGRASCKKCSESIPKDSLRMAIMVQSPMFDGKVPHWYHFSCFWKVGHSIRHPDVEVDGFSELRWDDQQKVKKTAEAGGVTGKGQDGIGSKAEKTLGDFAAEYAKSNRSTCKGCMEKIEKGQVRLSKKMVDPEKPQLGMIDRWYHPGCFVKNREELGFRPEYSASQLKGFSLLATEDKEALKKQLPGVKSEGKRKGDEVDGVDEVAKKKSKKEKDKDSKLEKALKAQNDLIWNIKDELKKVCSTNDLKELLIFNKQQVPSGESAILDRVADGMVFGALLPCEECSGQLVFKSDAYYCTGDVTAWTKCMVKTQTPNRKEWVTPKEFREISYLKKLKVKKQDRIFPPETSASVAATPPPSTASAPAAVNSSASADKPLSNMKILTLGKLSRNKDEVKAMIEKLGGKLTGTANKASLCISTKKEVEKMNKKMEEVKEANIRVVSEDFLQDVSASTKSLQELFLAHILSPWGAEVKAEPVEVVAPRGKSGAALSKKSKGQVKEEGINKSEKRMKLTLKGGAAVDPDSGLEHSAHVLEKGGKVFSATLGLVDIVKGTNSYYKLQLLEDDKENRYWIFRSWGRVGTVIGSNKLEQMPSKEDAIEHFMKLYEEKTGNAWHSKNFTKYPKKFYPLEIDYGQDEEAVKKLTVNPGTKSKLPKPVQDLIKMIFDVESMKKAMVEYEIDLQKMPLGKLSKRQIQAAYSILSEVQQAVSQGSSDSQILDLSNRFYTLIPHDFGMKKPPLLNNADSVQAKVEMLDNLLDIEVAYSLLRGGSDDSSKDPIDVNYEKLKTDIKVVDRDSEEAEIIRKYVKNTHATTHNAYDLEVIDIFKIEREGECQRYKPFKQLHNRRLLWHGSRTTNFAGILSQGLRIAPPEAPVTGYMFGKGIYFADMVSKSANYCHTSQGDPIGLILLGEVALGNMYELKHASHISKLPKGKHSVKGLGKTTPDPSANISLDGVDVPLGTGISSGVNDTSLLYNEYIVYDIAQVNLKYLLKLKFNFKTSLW
# UniProt P18031, sequence (whole entry, looked up): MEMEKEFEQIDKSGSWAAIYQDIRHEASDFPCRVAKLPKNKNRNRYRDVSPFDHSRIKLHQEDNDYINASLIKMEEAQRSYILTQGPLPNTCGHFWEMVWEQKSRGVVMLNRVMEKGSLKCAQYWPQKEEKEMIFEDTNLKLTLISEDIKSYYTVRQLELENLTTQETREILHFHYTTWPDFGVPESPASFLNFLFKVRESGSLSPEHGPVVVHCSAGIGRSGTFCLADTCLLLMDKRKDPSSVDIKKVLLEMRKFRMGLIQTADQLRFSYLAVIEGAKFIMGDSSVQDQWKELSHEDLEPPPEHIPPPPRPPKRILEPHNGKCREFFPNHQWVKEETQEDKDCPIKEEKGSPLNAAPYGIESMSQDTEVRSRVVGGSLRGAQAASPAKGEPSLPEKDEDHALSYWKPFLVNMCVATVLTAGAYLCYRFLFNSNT
# UniProt O00519, sequence (whole entry, looked up): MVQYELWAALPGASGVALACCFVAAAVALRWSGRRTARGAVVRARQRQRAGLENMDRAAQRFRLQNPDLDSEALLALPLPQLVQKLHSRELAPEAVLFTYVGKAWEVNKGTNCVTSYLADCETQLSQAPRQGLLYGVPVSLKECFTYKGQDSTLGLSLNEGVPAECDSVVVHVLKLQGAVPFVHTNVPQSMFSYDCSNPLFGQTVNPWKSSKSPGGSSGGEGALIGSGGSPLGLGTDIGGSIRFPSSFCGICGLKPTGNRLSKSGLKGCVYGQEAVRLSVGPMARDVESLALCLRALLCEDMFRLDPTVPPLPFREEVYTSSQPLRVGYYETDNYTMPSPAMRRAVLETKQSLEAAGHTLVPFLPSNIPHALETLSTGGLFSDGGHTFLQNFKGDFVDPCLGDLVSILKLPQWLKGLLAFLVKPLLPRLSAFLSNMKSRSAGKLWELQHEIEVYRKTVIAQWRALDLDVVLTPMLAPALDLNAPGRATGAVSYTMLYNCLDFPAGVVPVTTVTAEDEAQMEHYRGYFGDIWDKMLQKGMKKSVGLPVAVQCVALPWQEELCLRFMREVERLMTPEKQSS
# UniProt Q06187, sequence (whole entry, looked up): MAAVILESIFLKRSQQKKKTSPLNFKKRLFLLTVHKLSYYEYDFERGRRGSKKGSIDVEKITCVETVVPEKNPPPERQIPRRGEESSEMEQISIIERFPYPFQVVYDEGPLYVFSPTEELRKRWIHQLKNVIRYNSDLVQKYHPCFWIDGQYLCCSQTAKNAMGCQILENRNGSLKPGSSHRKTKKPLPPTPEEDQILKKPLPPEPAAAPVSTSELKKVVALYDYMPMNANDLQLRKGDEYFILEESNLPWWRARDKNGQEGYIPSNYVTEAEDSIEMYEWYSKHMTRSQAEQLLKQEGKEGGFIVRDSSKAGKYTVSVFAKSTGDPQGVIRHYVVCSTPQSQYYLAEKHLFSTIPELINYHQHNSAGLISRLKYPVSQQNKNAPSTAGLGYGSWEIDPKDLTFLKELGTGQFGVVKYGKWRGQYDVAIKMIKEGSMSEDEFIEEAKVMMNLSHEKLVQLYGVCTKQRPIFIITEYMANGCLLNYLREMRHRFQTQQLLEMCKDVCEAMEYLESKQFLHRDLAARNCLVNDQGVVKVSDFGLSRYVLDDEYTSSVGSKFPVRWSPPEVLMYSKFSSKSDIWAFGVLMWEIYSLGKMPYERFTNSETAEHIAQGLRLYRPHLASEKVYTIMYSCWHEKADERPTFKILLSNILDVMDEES
Substance,tested on,test,test system,conditions,measurement,result
C=CCc1ccc(O)c(-c2ccc(O)c(CC=C)c2)c1,"PTPN1 (Homo sapiens, UniProt P18031)","enzyme activity, inhibitor, absorbance",,pH 7,IC50,63400 nM
CC1=NN(c2cccc(C(=O)O)c2)C(=O)/C1=C\c1ccc(-c2ccc(Cl)c(C(=O)NC3CC3)c2)o1,"DNA repair protein complementing XP-A cells (Homo sapiens, UniProt P23025)","binding to cisplatin-DNA, EMSA",,full-length XPA,IC50,> 25000 nM
COc1ccc(C(=O)OCc2ccccc2)cc1,"FAAH (Homo sapiens, UniProt O00519)","enzyme activity, inhibitor, fluorescence",,with preincubation,IC50,> 100000 nM
NC(=O)c1ccc(N)c2c1OCCO2,"PARP1 (Homo sapiens, UniProt P09874)",,,,IC50,> 5000 nM
Tannic acid,"Cell division cycle 7-related protein kinase, with DBF4 (CDC7, Homo sapiens, UniProt O00311)","enzyme activity, inhibitor, ADP-Glo",,"Dbf4 complex, together with: ATP 12.5 µM",IC50,~800 nM and 770 nM
CCCCCCCCCCCC[N+](C)(C)CCOc1ccccc1,"Calmodulin-1, with adenylyl cyclase 8 (CALM1, Homo sapiens, UniProt P0DP23)","AC8-calmodulin interaction, NanoBiT complementation",HEK-293T,"30 min pretreatment, together with: rat AC8",IC50,6310 nM
COc1ccc2c(NC3CCNCC3)nc(NCc3ccc(CNCCCNC4CCCCC4)cc3)nc2c1,CXCR4,"ligand displacement, radioligand",,cell membranes,IC50,~10 nM and 6.8 nM
CCc1nc(N)nc(N)c1-c1ccc(Cl)cc1,"SLC47A2 (Homo sapiens, UniProt Q86VL8)","transport, inhibitor",HEK cells transfected with SLC47A2,"0.5 min, together with: baricitinib 0.25 µM",IC50,220 nM and 270 nM
Cc1ccc(NC(=S)N2CCN(CC(O)COc3ccccc3C(=O)c3ccccc3)CC2)cc1 (centres unmarked),"ABCB1 (Homo sapiens, UniProt P08183)","daunorubicin efflux, inhibitor",CCRF-CEM vcr 1000 multidrug resistant,together with: daunorubicin,IC50,9480 nM
[11CH3]Nc1ccc(-c2nc3ccc(O)cc3s2)cc1,"MAPT (Homo sapiens, UniProt P10636)","ligand displacement, radioligand",,,IC50,≤ 324 nM and 324 nM
NC(=O)[C@H]1CCN(c2ncnc(N)c2F)C[C@@H]1N1CCC[C@@H](Nc2cc(Cl)cc(C(F)(F)F)c2)C1=O,"BTK (Homo sapiens, UniProt Q06187)","phosphorylation, inhibitor",human whole blood,"0.5 h, healthy donors, mean",IC50,50 nM
C#Cc1ccc2cc(-c3ccccc3)c(=O)oc2c1,"Cytochrome P450 1A2 (CYP1A2, Homo sapiens, UniProt P05177)","enzyme activity, inhibitor",,"6 min, pH 7.6",IC50,3000 nM
CC1=C(COc2cccc(C(F)(F)F)c2)C(=O)c2ccccc2C1=O,"TXNRD1 (Homo sapiens, UniProt Q16881)","enzyme activity, inhibitor",,"pH 7.4, with preincubation",IC50,3000 nM
c1nc2c(NCC3CCC(CNCCCNC4CCCCC4)CC3)nc(N3CCNCC3)nc2[nH]1 (centres unmarked),CXCR4,"β-arrestin-2 recruitment, antagonist, luciferase complementation",MDA-MB-231,"20 min, together with: 200 ng/mL CXCL12-α",IC50,90 nM
COc1ccc(C(=O)NC2CCCc3c2[nH]c2c(Cl)cccc32)cc1OC (centres unmarked),"Uracil nucleotide/cysteinyl leukotriene receptor, long isoform (GPR17, Homo sapiens, UniProt Q13304)","calcium mobilization, antagonist",1321N1 stably expressing GPR17,resynthesised compound,IC50,2300 nM
O=c1[nH]c2ccccc2n1C1CCN(CCCC(c2ccc(F)cc2)c2ccc(F)cc2)CC1,"ABCC1 (Homo sapiens, UniProt P33527)","efflux, inhibitor, flow cytometry",SupT1 cells overexpressing ABCC1,together with: DiIC1(5) 100 nM,IC50,6000 ± 2100 nM
CN1CCN(CCCN2c3ccccc3Sc3ccc(C(F)(F)F)cc32)CC1,"USP2 (Homo sapiens, UniProt O75604)",,,,IC50,> 114000 nM
"UGT1A9 (Homo sapiens, UniProt O60656)",COc1cc(/C=C/C(O)=C/C(=O)/C=C/c2ccc(O)cc2)ccc1O,steady-state kinetics,,"pH 7.4, 37 °C",Vmax/Km,14 µL/min/mg
CC(C)CN(CC(C)C)c1nc(NCCO)nc2c(N(CC(C)C)CC(C)C)nc(NCCO)nc12,"SLC29A1 (Homo sapiens, UniProt Q99808)",[3H]uridine uptake,PK-15 expressing SLC29A1,"2 min, pH 7.4, together with: [3H]uridine 0.2 µM",IC50,5940 nM
O=C(Nc1cc(F)c(Cl)c(F)c1)c1cc(S(=O)(=O)N2CCOCC2)c(Cl)cc1Cl,"LPAR4 (Homo sapiens, UniProt Q99677)","Ca2+ mobilization, antagonist",CHO,together with: LPA at EC50,IC50,> 100000 nM

# For quick reference, copied from above:
Substance,tested on,test,test system,conditions,measurement,result
O=C(Nc1cc(F)c(Cl)c(F)c1)c1cc(S(=O)(=O)N2CCOCC2)c(Cl)cc1Cl,"LPAR4 (Homo sapiens, UniProt Q99677)","Ca2+ mobilization, antagonist",CHO,together with: LPA at EC50,IC50,> 100000 nM
COc1ccc2c(NC3CCNCC3)nc(NCc3ccc(CNCCCNC4CCCCC4)cc3)nc2c1,CXCR4,"ligand displacement, radioligand",,cell membranes,IC50,~10 nM and 6.8 nM
